Results collected from several papers.
Numbered parts are unrelated; each lists some results of a single study.

Sample 1
Target: POU domain, class 5, transcription factor 1, POU domain (Pou5f1, Mus musculus, UniProt P20263, residues 131-289)
Chain of UniProt P20263 (131-289, looked up): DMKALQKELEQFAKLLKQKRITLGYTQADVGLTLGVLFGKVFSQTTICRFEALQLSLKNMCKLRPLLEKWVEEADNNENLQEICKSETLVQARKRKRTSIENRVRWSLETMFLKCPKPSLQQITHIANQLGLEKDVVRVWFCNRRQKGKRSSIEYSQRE
Technique: Spec-seq
Form: double-stranded DNA, one strand shown
Sample: in vitro
Concentration: not given
Setting: whole probe, mean of replicates
Baseline: not given
Reading: lower = stronger binding
| Strand | relative binding energy [ln ratio] |
| --- | --- |
| GAGTCGTCTCGTCAGCACATGCTATCCCGTAGAGCACTCAGGTC | 0.447 |
| GAGTCGTCTCGTCAGCACATGCACTTCCGTAGAGCACTCAGGTC | 0.083 |
| GAGTCGTCTCGTCAGCACATGCTTAACCGTAGAGCACTCAGGTC | 0.221 |
| GAGTCGTCTCGTCAGCACATATCTATCCGTAGAGCACTCAGGTC | 0.117 |

Sample 2
Target: Protein C-ets-1 (ETS1, Homo sapiens, UniProt P14921, residues 1-441, full length assumed)
Chain of UniProt P14921 (whole entry, looked up): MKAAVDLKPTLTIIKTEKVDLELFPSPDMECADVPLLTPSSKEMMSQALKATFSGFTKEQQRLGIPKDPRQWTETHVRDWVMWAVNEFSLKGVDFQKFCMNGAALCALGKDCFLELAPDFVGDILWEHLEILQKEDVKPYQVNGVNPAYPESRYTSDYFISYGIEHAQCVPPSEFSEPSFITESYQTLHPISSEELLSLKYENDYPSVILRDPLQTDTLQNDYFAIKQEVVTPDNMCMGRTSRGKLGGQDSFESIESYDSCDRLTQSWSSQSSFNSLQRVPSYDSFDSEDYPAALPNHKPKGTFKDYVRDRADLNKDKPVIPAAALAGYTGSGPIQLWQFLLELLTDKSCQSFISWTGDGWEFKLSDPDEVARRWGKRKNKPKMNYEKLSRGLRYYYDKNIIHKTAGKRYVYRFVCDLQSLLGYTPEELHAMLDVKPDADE
Technique: protein-binding microarray
Form: double-stranded DNA, one strand shown
Sample: in vitro
Concentration: not given
Setting: k-mer, scored over probes, only values ≥0.25
Reading: higher = stronger binding
| Strand | E-score |
| --- | --- |
| CCGGATCA | 0.369 |
| TCCGGCCA | 0.448 |
| AGTATCCG | 0.448 |
| ACTTCCTG | 0.488 |
| CCATCCCG | 0.27 |

Sample 3
Target: Histone acetyltransferase KAT6A, winged helix 2, GST fusion (KAT6A, Homo sapiens, UniProt Q92794, residues 85-181)
Technique: protein binding microarray
Form: double-stranded DNA, one strand shown
Sample: in vitro
Concentration: not given
Setting: 8-mer, flanks averaged, mean of 2 arrays, mostly near background
Baseline: not given
Reading: higher = stronger binding
Construct (chain): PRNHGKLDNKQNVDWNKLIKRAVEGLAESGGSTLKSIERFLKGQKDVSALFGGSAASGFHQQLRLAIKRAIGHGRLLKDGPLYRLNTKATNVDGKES
| Strand | E-score |
| --- | --- |
| ACGGGATA | -0.0842 |
| ACGTGAAA | -0.105 |
| CGCTGCCG | 0.131 |
| AGGACTAT | -0.202 |
| AAGCTTAG | 0.0885 |

Mixed results
| Substance | target | assay | system | conditions | scale | endpoint | value |
| --- | --- | --- | --- | --- | --- | --- | --- |
| PhoQ, residues 284 288 289 292 302 303 ALVSVA | PhoP, residues 12 14 15 18 19 LHSVW (Escherichia coli, UniProt P23836) | Sort-seq, measured: YFP reporter | E. coli | PhoQ-PhoP variant library, added: 10 µM Mg2+ | baseline: high Mg2+ state, higher = stronger signaling | fold induction | 3.88 |
